Published values of several laboratories.
Lines come from different studies, so protocols differ. ± gives the spread as reported.
Rhomboid protease AarA: Rhomboid protease AarA (Providencia stuartii, UniProt P46116)
Sequence of UniProt P46116 (whole entry, looked up): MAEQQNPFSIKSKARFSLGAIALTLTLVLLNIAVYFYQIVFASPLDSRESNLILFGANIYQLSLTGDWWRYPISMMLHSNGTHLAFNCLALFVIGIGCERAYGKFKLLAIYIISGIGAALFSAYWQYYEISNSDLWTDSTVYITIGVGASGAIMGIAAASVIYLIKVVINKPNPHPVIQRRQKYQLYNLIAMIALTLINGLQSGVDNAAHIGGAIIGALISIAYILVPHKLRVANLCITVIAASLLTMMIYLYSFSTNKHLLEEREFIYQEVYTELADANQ
CHRM4: Muscarinic acetylcholine receptor M4 (CHRM4, Homo sapiens, UniProt P08173)
Sequence of UniProt P08173 (whole entry, looked up): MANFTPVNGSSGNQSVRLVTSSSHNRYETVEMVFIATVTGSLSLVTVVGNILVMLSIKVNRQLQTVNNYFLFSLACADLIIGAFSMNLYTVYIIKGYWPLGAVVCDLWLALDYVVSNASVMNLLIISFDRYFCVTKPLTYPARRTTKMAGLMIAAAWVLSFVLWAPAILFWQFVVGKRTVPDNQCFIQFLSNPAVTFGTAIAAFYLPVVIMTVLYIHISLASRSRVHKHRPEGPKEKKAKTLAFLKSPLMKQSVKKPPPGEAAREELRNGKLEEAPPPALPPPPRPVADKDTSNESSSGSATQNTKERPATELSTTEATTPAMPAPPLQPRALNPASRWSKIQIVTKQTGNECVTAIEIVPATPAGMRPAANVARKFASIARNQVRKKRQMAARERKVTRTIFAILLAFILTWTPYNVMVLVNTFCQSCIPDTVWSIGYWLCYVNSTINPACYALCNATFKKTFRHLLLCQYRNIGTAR
HDAC1: Histone deacetylase 1 (HDAC1, Homo sapiens, UniProt Q13547)
Sequence of UniProt Q13547 (whole entry, looked up): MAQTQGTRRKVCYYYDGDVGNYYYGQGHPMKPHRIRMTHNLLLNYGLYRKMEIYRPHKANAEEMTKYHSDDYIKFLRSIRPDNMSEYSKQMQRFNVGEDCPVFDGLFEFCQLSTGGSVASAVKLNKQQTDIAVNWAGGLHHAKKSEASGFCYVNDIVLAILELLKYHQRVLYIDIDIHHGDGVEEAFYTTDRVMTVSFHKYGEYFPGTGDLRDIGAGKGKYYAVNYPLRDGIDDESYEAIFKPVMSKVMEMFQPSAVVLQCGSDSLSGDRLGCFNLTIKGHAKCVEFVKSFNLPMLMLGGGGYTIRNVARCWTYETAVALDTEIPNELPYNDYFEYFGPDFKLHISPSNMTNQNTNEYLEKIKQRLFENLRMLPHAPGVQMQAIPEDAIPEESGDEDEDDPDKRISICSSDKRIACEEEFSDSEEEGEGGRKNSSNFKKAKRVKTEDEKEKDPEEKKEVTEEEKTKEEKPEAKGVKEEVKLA
PPARG ligand-binding domain: Peroxisome proliferator-activated receptor gamma, ligand-binding domain (PPARG, Homo sapiens, UniProt P37231)
Sequence of UniProt P37231 (whole entry, looked up): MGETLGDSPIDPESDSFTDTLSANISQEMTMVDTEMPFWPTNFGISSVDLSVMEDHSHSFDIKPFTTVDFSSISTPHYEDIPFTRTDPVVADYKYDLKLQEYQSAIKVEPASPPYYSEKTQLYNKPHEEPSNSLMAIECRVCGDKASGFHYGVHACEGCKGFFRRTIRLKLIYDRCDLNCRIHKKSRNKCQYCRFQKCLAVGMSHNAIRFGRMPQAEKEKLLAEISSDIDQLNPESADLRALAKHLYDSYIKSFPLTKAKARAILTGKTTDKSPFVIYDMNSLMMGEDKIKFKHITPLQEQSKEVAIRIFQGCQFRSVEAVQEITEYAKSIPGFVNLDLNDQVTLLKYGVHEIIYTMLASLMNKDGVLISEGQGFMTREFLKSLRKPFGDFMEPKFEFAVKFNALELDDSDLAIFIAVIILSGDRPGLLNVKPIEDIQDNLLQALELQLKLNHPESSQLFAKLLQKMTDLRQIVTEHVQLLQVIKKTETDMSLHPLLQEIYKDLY
Melanoma-associated antigen 4 MAGE homology domain: Melanoma-associated antigen 4, MAGE homology domain (Homo sapiens, UniProt P43358)
Sequence of UniProt P43358 (whole entry, looked up): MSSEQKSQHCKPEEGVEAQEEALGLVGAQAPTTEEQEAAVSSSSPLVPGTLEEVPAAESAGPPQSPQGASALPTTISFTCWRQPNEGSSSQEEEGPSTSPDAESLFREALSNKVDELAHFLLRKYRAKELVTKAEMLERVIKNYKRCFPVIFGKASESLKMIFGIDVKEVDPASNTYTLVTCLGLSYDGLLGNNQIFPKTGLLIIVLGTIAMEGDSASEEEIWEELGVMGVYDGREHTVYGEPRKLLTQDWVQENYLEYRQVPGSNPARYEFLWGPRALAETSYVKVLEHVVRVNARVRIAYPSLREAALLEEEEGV
Sequence of UniProt Q99500 (whole entry, looked up): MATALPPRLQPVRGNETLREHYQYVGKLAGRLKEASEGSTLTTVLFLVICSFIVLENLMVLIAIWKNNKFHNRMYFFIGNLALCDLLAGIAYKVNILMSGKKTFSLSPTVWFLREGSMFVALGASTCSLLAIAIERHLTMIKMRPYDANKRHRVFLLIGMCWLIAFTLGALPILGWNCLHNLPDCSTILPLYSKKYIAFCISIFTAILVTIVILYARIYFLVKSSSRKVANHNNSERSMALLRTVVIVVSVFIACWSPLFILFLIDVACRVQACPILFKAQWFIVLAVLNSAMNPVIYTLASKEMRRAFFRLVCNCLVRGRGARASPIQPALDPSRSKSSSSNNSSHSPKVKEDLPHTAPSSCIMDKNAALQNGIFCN
Sequence of UniProt P36507 (whole entry, looked up): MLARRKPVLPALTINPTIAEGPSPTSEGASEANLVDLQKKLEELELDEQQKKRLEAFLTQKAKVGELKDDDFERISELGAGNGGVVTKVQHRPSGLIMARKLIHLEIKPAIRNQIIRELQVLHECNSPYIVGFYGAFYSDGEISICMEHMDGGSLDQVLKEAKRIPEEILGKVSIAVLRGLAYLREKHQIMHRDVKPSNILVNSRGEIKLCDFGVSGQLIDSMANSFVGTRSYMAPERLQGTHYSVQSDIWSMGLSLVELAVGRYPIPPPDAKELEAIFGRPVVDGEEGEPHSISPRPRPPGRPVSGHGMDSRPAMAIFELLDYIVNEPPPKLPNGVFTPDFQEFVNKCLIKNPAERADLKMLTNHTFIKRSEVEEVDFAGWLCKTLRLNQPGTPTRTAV
Sequence of UniProt P18421 (whole entry, looked up): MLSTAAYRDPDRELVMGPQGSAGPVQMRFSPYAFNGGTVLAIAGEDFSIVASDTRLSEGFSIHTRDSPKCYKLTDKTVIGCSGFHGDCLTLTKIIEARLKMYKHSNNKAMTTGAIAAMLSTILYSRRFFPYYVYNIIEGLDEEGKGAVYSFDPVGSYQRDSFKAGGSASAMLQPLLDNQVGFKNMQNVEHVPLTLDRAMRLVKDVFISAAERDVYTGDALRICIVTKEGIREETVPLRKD
Sequence of UniProt P22309 (whole entry, looked up): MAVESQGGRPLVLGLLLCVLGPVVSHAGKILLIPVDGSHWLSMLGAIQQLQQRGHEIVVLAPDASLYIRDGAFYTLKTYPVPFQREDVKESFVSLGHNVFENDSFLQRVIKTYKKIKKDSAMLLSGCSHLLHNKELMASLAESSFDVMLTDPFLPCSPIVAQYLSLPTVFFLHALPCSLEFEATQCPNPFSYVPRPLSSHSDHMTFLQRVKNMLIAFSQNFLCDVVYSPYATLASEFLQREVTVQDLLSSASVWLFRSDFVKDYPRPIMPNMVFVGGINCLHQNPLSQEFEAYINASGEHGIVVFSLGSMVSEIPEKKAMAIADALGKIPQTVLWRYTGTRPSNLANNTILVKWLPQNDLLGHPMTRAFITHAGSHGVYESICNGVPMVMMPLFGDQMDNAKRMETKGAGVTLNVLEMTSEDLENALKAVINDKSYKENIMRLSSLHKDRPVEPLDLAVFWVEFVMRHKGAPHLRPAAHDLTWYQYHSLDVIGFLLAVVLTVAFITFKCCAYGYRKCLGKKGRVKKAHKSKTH
Sequence of UniProt P29466 (whole entry, looked up): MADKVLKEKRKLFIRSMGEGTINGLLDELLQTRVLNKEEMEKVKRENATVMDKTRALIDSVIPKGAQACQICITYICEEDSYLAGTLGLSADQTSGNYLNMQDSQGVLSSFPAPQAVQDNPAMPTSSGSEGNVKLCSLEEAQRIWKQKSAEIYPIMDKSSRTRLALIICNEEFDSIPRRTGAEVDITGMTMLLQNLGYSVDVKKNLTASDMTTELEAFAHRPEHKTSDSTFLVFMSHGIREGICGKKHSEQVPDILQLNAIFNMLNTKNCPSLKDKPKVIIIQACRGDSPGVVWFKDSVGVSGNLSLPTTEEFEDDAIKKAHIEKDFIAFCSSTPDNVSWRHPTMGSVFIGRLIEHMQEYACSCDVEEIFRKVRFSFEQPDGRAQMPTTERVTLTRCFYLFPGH
Sequence of UniProt O15297 (whole entry, looked up): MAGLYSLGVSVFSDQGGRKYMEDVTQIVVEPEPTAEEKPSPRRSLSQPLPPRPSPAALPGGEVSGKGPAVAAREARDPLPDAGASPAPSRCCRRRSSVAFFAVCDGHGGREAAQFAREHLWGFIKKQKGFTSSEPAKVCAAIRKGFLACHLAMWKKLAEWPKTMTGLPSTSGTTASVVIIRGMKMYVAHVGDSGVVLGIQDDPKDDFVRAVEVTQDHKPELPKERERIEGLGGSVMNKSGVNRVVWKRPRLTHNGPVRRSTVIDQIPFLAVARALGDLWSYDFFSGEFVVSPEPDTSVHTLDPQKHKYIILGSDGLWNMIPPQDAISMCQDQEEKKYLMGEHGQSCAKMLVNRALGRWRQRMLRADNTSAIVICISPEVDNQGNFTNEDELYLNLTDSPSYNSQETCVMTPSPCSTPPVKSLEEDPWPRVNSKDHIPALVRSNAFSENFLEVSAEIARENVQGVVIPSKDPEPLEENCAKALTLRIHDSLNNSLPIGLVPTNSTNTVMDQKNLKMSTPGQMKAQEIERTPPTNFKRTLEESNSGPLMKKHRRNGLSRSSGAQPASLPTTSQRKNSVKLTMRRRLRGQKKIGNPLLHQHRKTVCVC
Sequence of UniProt P28064 (whole entry, looked up): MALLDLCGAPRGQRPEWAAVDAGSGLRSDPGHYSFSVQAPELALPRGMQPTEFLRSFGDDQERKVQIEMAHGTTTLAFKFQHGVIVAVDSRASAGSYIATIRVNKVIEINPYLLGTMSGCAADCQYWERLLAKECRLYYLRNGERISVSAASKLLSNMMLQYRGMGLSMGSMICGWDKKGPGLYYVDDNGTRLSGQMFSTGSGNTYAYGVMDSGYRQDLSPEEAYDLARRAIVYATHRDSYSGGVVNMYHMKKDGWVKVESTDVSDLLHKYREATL

Structure (SMILES)	target	test	test system	setting	IC50 [µM]
O=C(NCc1ccc(Cl)cc1)C(C(F)(F)F)C(F)(F)F	Rhomboid protease AarA	enzyme activity, inhibitor, fluorescence			5
Cc1c(Cc2cccc(OC(C)C(=O)O)c2)c2ccc(C(=O)N[C@@H](C)c3cccc(C(F)(F)F)c3)cc2n1C (stereo partly drawn)	Peroxisome proliferator-activated receptor gamma (PPARG, Homo sapiens, UniProt P37231)	ligand displacement, TR-FRET			0.013
O=C(CCNC(=O)CNC(=O)CC(c1ccccc1)(c1ccccc1)c1ccccc1)NC[C@H]1CCCN(C(=O)c2ccc(F)cc2)C1	CHRM4	ligand displacement, radioligand		cell membranes	> 30
COC(=O)CCCNC(=O)c1ccc(Nc2ncc(F)c(-c3cc(F)c4nc(C)n(C(C)C)c4c3)n2)cc1	HDAC1	enzyme activity, inhibitor			> 1
Cc1cccc(C2CC(=O)N2S(=O)(=O)c2cccc(Cl)c2)c1 (stereo not drawn)	Rhomboid protease AarA	enzyme activity, inhibitor, fluorescence			12
CC(C)Cn1cc(Cc2cccc(OC(C)(C)C(=O)O)c2)c2ccc(C(=O)N[C@@H](C)c3cccc(C(C)(C)C)c3)cc21	PPARG ligand-binding domain	reporter gene, luciferase reporter	HEK293T, Gal4-PPARγ LBD		0.06
Cc1ccc(S(=O)(=O)N2CC(NC(=O)Cc3ccccc3)C2=O)cc1 (stereo not drawn)	Rhomboid protease AarA	enzyme activity, inhibitor, fluorescence			66
O=C(COc1ccc2ccccc2c1)NCc1ccc(OP(=O)(O)O)c(OP(=O)(O)O)c1	Signal transducer and activator of transcription 5B, SH2 (STAT5B, Homo sapiens, UniProt P51692)	ligand displacement, FP			0.63
Cc1c(Cc2ccc(OC(C)(C)C(=O)O)cc2)c2ccc(C(=O)N[C@@H](C)c3ccc(C(C)(C)C)cc3)cc2n1C	PPARG ligand-binding domain	reporter gene, luciferase reporter	HEK293T, Gal4-PPARγ LBD		33.5
O=c1sn(Cc2ccccc2)c(=O)n1C1CC1	Alpha-ketoglutarate-dependent dioxygenase FTO (FTO, Homo sapiens, UniProt Q9C0B1)	enzyme activity, inhibitor			> 100
CC[C@H](C)[C@@H]1NC(=O)[C@H](Cc2ccccc2)NC(=O)CSC[C@@H](C(N)=O)NC(=O)[C@H](CC(N)=O)NC(=O)[C@H](Cc2c[nH]cn2)NC(=O)[C@H](Cc2ccc(O)cc2)NC(=O)[C@H](CC(=O)O)NC(=O)[C@H](Cc2ccc(O)cc2)NC(=O)[C@H](CC(C)C)NC(=O)[C@H](CCCNC(=N)N)NC1=O	Melanoma-associated antigen 4 MAGE homology domain	binding, inhibitor, TR-FRET displacement		with: Alexa647-MTP-1	0.0482 ± 0.0034
Cc1nc2c(F)cc(-c3nc(Nc4ccc(CNC(=O)CCCCCCC(=O)NO)cc4)ncc3F)cc2n1C(C)C	HDAC1	enzyme activity, inhibitor			0.026
CCOC(=O)C[C@@H](C#N)NC(=O)[C@@H]1CCCN1C(=O)[C@@H](NC(=O)c1ccc(N)c(Cl)c1)C(C)(C)C	Caspase-1 (CASP1, Homo sapiens, UniProt P29466)	enzyme activity, inhibitor			0.00766
CN(C)c1ccc2c(-c3cc(C(=O)NCCNC(=O)[C@H](CC4CCCCC4)NC(=O)c4ccc(CNc5ccccn5)s4)ccc3C(=O)O)c3ccc(=[N+](C)C)cc-3oc2c1	Protein phosphatase 1D (PPM1D, Homo sapiens, UniProt O15297)	enzyme activity, inhibitor			0.327
CC(=O)OC1CCC2(C)C(CCC3(C)C2CC=C2C4C(C)C(C)CCC4(C(=O)O)CCC23C)C1(C)C (stereo not drawn)	UDP-glucuronosyltransferase 1A1 (UGT1A1, Homo sapiens, UniProt P22309)	enzyme activity, inhibitor			> 100
Cc1c(Cc2cccc(OC(C)C(=O)O)c2Cl)c2ccc(C(=O)NC(C)c3ccc(C(C)(C)C)cc3)cc2n1C (stereo not drawn)	PPARG ligand-binding domain	reporter gene, luciferase reporter	HEK293T, Gal4-PPARγ LBD		42.8
COc1ccc(C(=O)c2c(C(=O)NCCCN(C)C)oc3ccc(Cl)cc3c2=O)cc1OC	Growth hormone secretagogue receptor type 1 (GHSR, Homo sapiens, UniProt Q92847)	ligand displacement, radioligand		cell membranes	1.58
CCc1cccc([C@H](C)NC(=O)c2ccc3c(Cc4cccc(OC(C)(C)C(=O)O)c4)c(C)n(C)c3c2)c1	PPARG ligand-binding domain	reporter gene, luciferase reporter	HEK293T, Gal4-PPARγ LBD		373

Structure (SMILES)	target	test	test system	setting	IC50 [µM]
COCCNC(=O)c1ccc(NC(=O)C(C(F)(F)F)C(F)(F)F)cc1	Rhomboid protease AarA	enzyme activity, inhibitor, fluorescence			36
COC(=O)CCCCCCC(=O)Nc1ccc(Nc2ncc(F)c(-c3cc(F)c4nc(C)n(C(C)C)c4c3)n2)cc1	HDAC1	enzyme activity, inhibitor			> 1
Cc1nc2cc(C(=O)N[C@@H](C)c3ccc(C(C)(C)C)cc3)ccc2n1Cc1cccc(OC(C)(C)C(=O)O)c1	PPARG ligand-binding domain	reporter gene, luciferase reporter	HEK293T, Gal4-PPARγ LBD		43.4
COCCn1cc2c(n1)CN(C(=O)Nc1nc(-c3ccc(F)cc3F)ccc1N)C2	Lysine-specific histone demethylase 1A, with CoREST (KDM1A, Homo sapiens, UniProt O60341)	demethylase activity, inhibitor		LSD1-CoREST complex	> 150
Cc1ccccc1NC(=O)C(C(F)(F)F)C(F)(F)F	Rhomboid protease AarA	enzyme activity, inhibitor, fluorescence			25.9
O=C(CCNC(=O)CNC(=O)CC(c1ccccc1)(c1ccccc1)c1ccccc1)NC[C@@H]1CCCN(C[C@H]2C[C@H](F)C2)C1	CHRM4	ligand displacement, radioligand		cell membranes	> 30
Cc1nc2ccc(Br)cc2c(=O)n1N	Serine protease 1 (PRSS1, Bos taurus, UniProt P00760)	enzyme activity, inhibitor			7.87
Cc1c(Cc2cccc(OC(C)C(=O)O)c2)c2ccc(C(=O)N[C@@H](C)c3cccc(C(C)C)c3)cc2n1C (stereo partly drawn)	PPARG ligand-binding domain	reporter gene, luciferase reporter	HEK293T, Gal4-PPARγ LBD		2.85
CCOc1cc(CN2CC3(CC(N4CCC(C(=O)O)CC4)=NO3)C2)cc(OCC)c1-c1ccc(F)cc1	Somatostatin receptor type 5 (SSTR5, Homo sapiens, UniProt P35346, F264A)	cAMP level, antagonist, GloSensor	AD293	F264A mutant, bandwidth 6.51, with: CST17 EC80 and forskolin	0.55
Cc1ccc(CNC(=O)[C@@H](NC(=O)[C@H](CCc2ccccc2)NC(=O)[C@H](CCc2ccccc2)NCc2cnccn2)C(C)C)cc1	Psmb1/Psmb8 (Rattus norvegicus, UniProt P18421+P28064)	enzyme activity, inhibitor		with: Ac-ANW-aminocoumarin, PA28α 12 nM	1.81
O=C(Cc1ccc(OCc2ccccc2)cc1)NC1(C(=O)O)CCN(C(=O)c2ccc(-c3cccc(Cl)c3)cc2)CC1	Sphingosine 1-phosphate receptor 3 (S1PR3, Homo sapiens, UniProt Q99500)	antagonist, GloSensor cAMP			> 10
CC[C@H](C)[C@@H]1NC(=O)[C@H](Cc2ccc(O)cc2)NC(=O)CCSCc2cccc(c2)CSCCNC(=O)[C@H](Cc2c[nH]cn2)NC(=O)[C@H](Cc2ccc(O)cc2)NC(=O)[C@H](CC(=O)O)NC(=O)[C@H](Cc2ccc(O)cc2)NC(=O)[C@H](CC(C)C)NC(=O)[C@H](CCCNC(=N)N)NC1=O	Melanoma-associated antigen 4 MAGE homology domain	binding, inhibitor, TR-FRET displacement		with: Alexa647-MTP-1	0.0235 ± 0.008
O=C(Nc1ccccc1OC1CCCC1)C(C(F)(F)F)C(F)(F)F	Rhomboid protease AarA	enzyme activity, inhibitor, fluorescence			1.8
Cc1nc2c(F)cc(-c3nc(Nc4ccc(C(=O)NCCCC(=O)NO)cc4)ncc3F)cc2n1C(C)C	HDAC1	enzyme activity, inhibitor			0.1
Cc1ccc(S(=O)(=O)N2CC(NC(=O)c3ccccc3)C2=O)cc1 (stereo not drawn)	Rhomboid protease AarA	enzyme activity, inhibitor, fluorescence			132
Cc1nn(-c2cccc(N)c2)c(=O)c2cnc(Nc3ccc(N4CCNCC4)cc3)nc12	Dual specificity mitogen-activated protein kinase kinase 2 (MAP2K2, Homo sapiens, UniProt P36507)	enzyme activity, inhibitor			> 10
Cc1c(Cc2cccc(OC(C)(C)C(=O)O)c2)c2ccc(C(=O)N[C@H](C)c3ccc(C(C)(C)C)cc3)cc2n1C	PPARG ligand-binding domain	reporter gene, luciferase reporter	HEK293T, Gal4-PPARγ LBD		294
Cc1cc(C)nc(NC(=S)N2CCN(Cc3ccc(C(F)(F)F)cc3)CC2)c1	Glyceraldehyde-3-phosphate dehydrogenase (GAPDH, Homo sapiens, UniProt P04406)	enzyme activity, inhibitor			> 100
